Measured values of several laboratories.
Every numbered part comes from another study and shows a few of its results, in no order. “And” joins repeats or separate records; there may be more than shown. ± marks the error that the study gave.

Study 1
Target: Sodium-dependent neutral amino acid transporter B(0)AT1 (SLC6A19, Homo sapiens, UniProt Q695T7)
Action: inhibitor
Technique: L-[14C]leucine uptake
Cells: CHO-BC cells
Together with: L-leucine 150 µM
SMILES	IC50
Cc1cc(OCC(=O)NC(C)C)ccc1Br	1000 ± 400 nM
CC(C)NC(=O)COc1ccc(I)cc1	6000 ± 600 nM
Cc1cc(OCC(=O)NC(C)C)ccc1Cl	2000 ± 300 nM
Cc1cc(NCC(=O)NC(C)C)cc(C)c1I	400 ± 100 nM
CC(C)NC(=O)COc1ccc2ccccc2c1	2000 ± 400 nM
CNC(=O)COc1cc(C)c(Cl)c(C)c1	20000 ± 10000 nM

Study 2
Compound: Cc1ccc(O)c(C)c1-c1cnc2[nH]c(-c3cnc(N4CCC5(CC4)CC(N4CCN(c6ccc(N[C@H]7CCC(=O)NC7=O)cc6F)CC4)CO5)nc3)cc2c1C#N (single isomer, unassigned)
target or system	assay	conditions	IC50 [nM]
HCC1569	automated immunoblotting, item: CDK1 phospho-Thr14	24 h	19.3
SRC (Homo sapiens, UniProt P12931)	enzyme activity, inhibitor, TR-FRET	–	398
biomarker-positive cells (CCNE1 amp, FBXW7 mut, PPP2R1A loss)	cell growth	168 h, average	177
BRAF (Homo sapiens, UniProt P15056)	enzyme activity, inhibitor, ADP detection	–	485
RAF1 (Homo sapiens, UniProt P04049, Y340D/Y341D)	enzyme activity, inhibitor, ADP detection	–	373
HCC1569	CDK1 phosphorylation, Jess capillary immunoassay, item: CDK1 phospho-Thr14	24 h	9
PKMYT1 (Homo sapiens, UniProt Q99640)	enzyme activity, inhibitor	–	7.6
biomarker-negative wild-type cell lines	cell growth	168 h	2120

Study 3
Structure (SMILES): C[C@@H]1CN(c2ccc(-c3cc(C(=O)NCCOCCOCCOCCOCCNC(=O)/C=C/c4[nH]cc(C(=O)N[C@@H](CC(N)=O)c5ccc(F)c(Cl)c5)c4-c4ccc(Cl)cc4F)ccc3F)cc2NC(=O)c2c[nH]c(=O)cc2C(F)(F)F)C[C@H](C)N1C
Observed: thermal unfolding
Technique: differential scanning fluorimetry
Tested at: 5.5 µM
Reading: higher = more unfolded
DCAF1: DDB1- and CUL4-associated factor 1 (DCAF1, Homo sapiens, UniProt Q9Y4B6)
WDR5: WD repeat-containing protein 5 (WDR5, Homo sapiens, UniProt P61964)
target	conditions	SYPRO Orange fluorescence
DCAF1	81.01 °C	44000 a.u.
WDR5	43.4 °C	15000 a.u.
WDR5	54.61 °C	16800 a.u.
WDR5	33 °C	12900 a.u.
DCAF1	70.81 °C	54900 a.u.
WDR5	36.8 °C	13600 a.u.
WDR5	56.41 °C	16700 a.u.
WDR5	41.8 °C	14600 a.u.
DCAF1	94.21 °C	30500 a.u.
DCAF1	42.2 °C	12300 a.u.
WDR5	69.21 °C	15300 a.u.

Study 4
SMILES: CCONC(=O)/C=C/CNCCCCN1c2cc(Cl)ccc2CCc2cnn(C)c21.O=C(O)/C=C\C(=O)O
Cell line: NCI-H292
Technique: CellTiter-Glo
Time: 72 h
conditions	viability
5 µM	68.7% and 57.4% and 59%
50 µM	-0.97% and -0.923% and -1.02%
0.05 µM	98.4% and 100% and 93.7%
0.005 µM	105% and 91.5% and 98.2%
0.5 µM	92.1% and 98.4% and 105%

A few entries again (study 1):
SMILES	IC50
Cc1cc(OCC(=O)NC(C)C)ccc1Cl	2000 ± 300 nM
CC(C)NC(=O)COc1ccc2ccccc2c1	2000 ± 400 nM
